{"data": "Assay results collected from several papers", "note": "Each numbered part is a random draw from the data of one study; scales do not carry over between parts."}
{"data": "Set 1", "target": "Histone acetyltransferase KAT6A, winged helix 1, GST fusion (KAT6A, Homo sapiens, UniProt Q92794, residues 1-85)", "technique": "protein binding microarray", "form": "double-stranded DNA, one strand shown", "sample": "in vitro", "tested at": "not given", "setting": "8-mer, flanks averaged, mean of 2 arrays, mostly near background", "relative to": "not given", "reading": "higher = stronger binding", "Residues (chain)": "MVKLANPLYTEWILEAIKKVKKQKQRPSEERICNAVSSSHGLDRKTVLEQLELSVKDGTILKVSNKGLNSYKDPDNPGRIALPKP"}
{"Oligonucleotide": "CTCAACGA", "E-score": -0.125}
{"Oligonucleotide": "CAGTCGAA", "E-score": -0.131}
{"Oligonucleotide": "CCCAGCCA", "E-score": -0.206}
{"Oligonucleotide": "GAATTATA", "E-score": -0.0959}
{"Oligonucleotide": "AGCTCACG", "E-score": -0.0427}
{"Oligonucleotide": "ACCTCCGC", "E-score": 0.186}
{"Oligonucleotide": "CTTCTGCC", "E-score": -0.0689}
{"Oligonucleotide": "AGATATAT", "E-score": -0.0979}
{"Oligonucleotide": "CACACATG", "E-score": -0.0542}
{"Oligonucleotide": "ACGGTCGA", "E-score": 0.185}
{"Oligonucleotide": "AATCAGGG", "E-score": -0.198}
{"Oligonucleotide": "AGACTTCA", "E-score": -0.33}
{"Oligonucleotide": "CGTATTTA", "E-score": 0.024}
{"Oligonucleotide": "TCGGCCAA", "E-score": 0.0621}
{"Oligonucleotide": "GTCTGGTA", "E-score": -0.179}
{"Oligonucleotide": "GGCGCCGA", "E-score": 0.383}
{"data": "Set 2", "target": "Prothrombin, mature alpha-thrombin (F2, Homo sapiens, UniProt P00734)", "technique": "aptamer microarray, sandwich", "form": "DNA with 2'F-ANA", "sample": "in vitro", "tested at": "200 nM", "setting": "whole 15-mer aptamer, many near background", "together with": "Cy3 exosite-II aptamer, 400 nM", "reading": "higher = stronger binding", "oligonucleotide": "GGTTGGTGTGGTTGG"}
{"Modification": "2'F-ANA at 5 7 10 11", "mean fluorescence intensity": "53.3 a.u."}
{"Modification": "2'F-ANA at 2 6 8 9 11 12 14", "mean fluorescence intensity": "145 a.u."}
{"Modification": "2'F-ANA at 6 13", "mean fluorescence intensity": "413 a.u."}
{"Modification": "2'F-ANA at 2 8 9 10 11 13", "mean fluorescence intensity": "120 a.u."}
{"Modification": "2'F-ANA at 1 3 5 8 9 10 11 12 14", "mean fluorescence intensity": "45.9 a.u."}
{"Modification": "2'F-ANA at 1 2 3 9 12 14", "mean fluorescence intensity": "82.9 a.u."}
{"Modification": "2'F-ANA at 3 5 6 7 8 10 12 13 14 15", "mean fluorescence intensity": "71.1 a.u."}
{"Modification": "2'F-ANA at 1 3 4 5 6 8 9 10 14", "mean fluorescence intensity": "68.3 a.u."}
{"Modification": "2'F-ANA at 3 4 6 8 11 14 15", "mean fluorescence intensity": "248 a.u."}
{"Modification": "2'F-ANA at 1 2 3 4 5 6 8 13", "mean fluorescence intensity": "64.8 a.u."}
{"Modification": "2'F-ANA at 1 2 5 6 7 8 9 10 12 15", "mean fluorescence intensity": "81.9 a.u."}
{"Modification": "2'F-ANA at 4 5 6 8 9 13 14 15", "mean fluorescence intensity": "43 a.u."}
{"Modification": "2'F-ANA at 1 3 5 6 8 10 11 14", "mean fluorescence intensity": "50.2 a.u."}
{"Modification": "2'F-ANA at 1 2 3 6 9 10 12 15", "mean fluorescence intensity": "85.2 a.u."}
{"Modification": "2'F-ANA at 1 4 8 9 13 15", "mean fluorescence intensity": "86 a.u."}
{"Modification": "2'F-ANA at 1 5 6 7 9 10 12 15", "mean fluorescence intensity": "47.6 a.u."}
{"Modification": "2'F-ANA at 3 4 5 6 7 10 11 13 14 15", "mean fluorescence intensity": "124 a.u."}
{"Modification": "2'F-ANA at 1 2 5 6 9 10 11 15", "mean fluorescence intensity": "45.5 a.u."}
{"Modification": "2'F-ANA at 1 2 3 4 5 7 8 11 12 15", "mean fluorescence intensity": "96.8 a.u."}
{"Modification": "2'F-ANA at 1 2 8 9 10 11 13 14", "mean fluorescence intensity": "69.9 a.u."}
{"data": "Set 3", "target": "Interferon regulatory factor 7, full length, phosphomimetic (IRF7, Homo sapiens, UniProt Q92985, residues 1-503, S471D/S472D/S475D/S476D/S477D/S483D/S484D/S487D)", "technique": "protein-binding microarray", "form": "double-stranded DNA, one strand shown", "sample": "in vitro", "tested at": "2200 nM top", "setting": "60-bp whole probe", "together with": "salmon DNA 0.4 mg/ml", "relative to": "random background probes", "reading": "higher = stronger binding", "all sequences stand within": "GCCTAGCAC … GTCTTGATTCGCTTGACGCTGCTG", "Residues (chain)": "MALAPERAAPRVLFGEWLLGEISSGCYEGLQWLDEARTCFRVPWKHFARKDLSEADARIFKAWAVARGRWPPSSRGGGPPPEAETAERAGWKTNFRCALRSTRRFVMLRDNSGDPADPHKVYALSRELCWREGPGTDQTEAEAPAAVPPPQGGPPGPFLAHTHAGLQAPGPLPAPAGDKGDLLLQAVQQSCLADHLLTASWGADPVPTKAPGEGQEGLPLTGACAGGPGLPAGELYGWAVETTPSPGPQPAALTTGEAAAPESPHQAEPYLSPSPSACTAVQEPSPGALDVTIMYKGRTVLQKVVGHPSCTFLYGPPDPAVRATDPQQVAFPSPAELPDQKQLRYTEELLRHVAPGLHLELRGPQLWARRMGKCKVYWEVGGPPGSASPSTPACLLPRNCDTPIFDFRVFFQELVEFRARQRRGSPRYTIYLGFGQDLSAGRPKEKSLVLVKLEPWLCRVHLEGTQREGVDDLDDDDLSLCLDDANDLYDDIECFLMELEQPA"}
{"Oligonucleotide": "GACGGTCTCGGCCTGGGGACGTGCTAG", "fitted relative affinity [z-score]": -0.476}
{"Oligonucleotide": "GACGGTATCAACTATCGGGACGTGCTA", "fitted relative affinity [z-score]": 0.0066}
{"Oligonucleotide": "TCACTTTTTTGTTCCACACTGTGCTAG", "fitted relative affinity [z-score]": 3.33}
{"Oligonucleotide": "AGACATTCTTTCAGTTGGAAGTGCTAG", "fitted relative affinity [z-score]": 0.967}
{"Oligonucleotide": "TCACAGTTGAGTTCTGTTACTGTGCTA", "fitted relative affinity [z-score]": 0.5}
{"Oligonucleotide": "GACGAACTGGGGTATCGAGACGTGCTA", "fitted relative affinity [z-score]": 0.203}
{"Oligonucleotide": "GACGGTATCGGGTTTCGGGAAGTGCTA", "fitted relative affinity [z-score]": 0.892}
{"Oligonucleotide": "TATGTTCACTATTTAAGGCCGTGCTAG", "fitted relative affinity [z-score]": 0.894}
{"Oligonucleotide": "TCTGCTTTGCCTTCAGCCCGGTGCTAG", "fitted relative affinity [z-score]": 0.951}
{"Oligonucleotide": "GTAGATTCCAGTTTCGATTAGTGCTAG", "fitted relative affinity [z-score]": 6.81}
{"Oligonucleotide": "GACGATTTCAGCCTGGAGACGTGCTAG", "fitted relative affinity [z-score]": 0.516}
{"Oligonucleotide": "GACGGTCTCGGACTGTGGACGTGCTAG", "fitted relative affinity [z-score]": -0.331}
{"Oligonucleotide": "GAACTTCTGCATTACAGCTAGTGCTAG", "fitted relative affinity [z-score]": 0.672}
{"Oligonucleotide": "CAGCCTCTGCATTCCCTCAGGTGCTAG", "fitted relative affinity [z-score]": 0.622}
{"Oligonucleotide": "TTAGGTTTCGACTATCGGTTCGTGCTA", "fitted relative affinity [z-score]": 4.17}
{"Oligonucleotide": "GACAACTGATATCAAAGGGAGTGCTAG", "fitted relative affinity [z-score]": -0.0646}
{"Oligonucleotide": "AGACACCCCTTTGGTGCCACGTGCTAG", "fitted relative affinity [z-score]": 0.684}
{"Oligonucleotide": "TTTGGTATCGACTTTCGGTTAGTGCTA", "fitted relative affinity [z-score]": 6.62}
{"Oligonucleotide": "TTAGGTCTCCTTCTCCTTTCGTGCTAG", "fitted relative affinity [z-score]": 1.73}
{"data": "Set 4", "target": "RNA binding protein fox-1 homolog 2, RRM domain, GST-SBP tag (RBFOX2, Homo sapiens, UniProt O43251-10, residues 100-194)", "technique": "RNA Bind-n-Seq", "form": "RNA", "sample": "in vitro", "tested at": "365 nM", "setting": "natural RNA segment, single round, ends assumed", "relative to": "no-protein control", "reading": "higher = stronger binding", "all sequences stand within": "GGGAGUUCUACAGUCCGACGAUC … UGGAAUUCUCGGGUGCCAA", "Construct (chain)": "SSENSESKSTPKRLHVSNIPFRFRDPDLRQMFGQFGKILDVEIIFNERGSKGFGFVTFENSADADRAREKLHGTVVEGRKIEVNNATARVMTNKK"}
{"Oligonucleotide": "GCCUUACCUCCUUCUAAUGGGUAAAGGGGCUUUCUUAUCAAGCAUGUCUGACAUCCCUGGAGAGGCUACGCUGUUCCAGGUGGCACUGGGAUGCCAGUUGGCAGCUGGAU", "RBNS enrichment (R)": 0.682}
{"Oligonucleotide": "UCAGGCAUCUGGGAGGGCCCUGCCCCCAUGGGCUUUACCCUUCCCUGCGGGCUCUCUCCCCGACACAUUUGUUAAAAUCAAACCUGAAUAAAACUACAAGUUUAAUAUGA", "RBNS enrichment (R)": 0.472}
{"Oligonucleotide": "UUCCACAAAAUCAGUGUCCUGUUUGGGCCAGUGUCUACAGAGCCUCAGUCCCACUUGGUUUCUGAGUGCCUCUUUUCUCUUCUGUGUCUUCUCUUCCCUUGUCCUUCCUC", "RBNS enrichment (R)": 0.317}
{"Oligonucleotide": "UCUGCCAAAAAUCAAGGUUUAAAAAGCUGAGGCUUGUAUUUGAUCAUGCUUUUCACCUAAAUAGCAAUUUAAAUAUUUGAUGAGCUCUGAACAAACCCUGUAUCAAGUAU", "RBNS enrichment (R)": 0.608}
{"Oligonucleotide": "GAUGGUGUCACCUAUGGGUUUUGAACCAGUGUGGUAUGGUCCUUGGGAGCUCUGCUCUGAGCUUGCCACACUGCUGAGAGCACCCACUGUCCUGACCAGAGUCUCAGUGG", "RBNS enrichment (R)": 0.291}
{"Oligonucleotide": "CUGGUCCCCUCCCCCAUCCCCACCACUGAUAUCAUGGGGAGUAAUAGGACCAGAGCGGUAUCUCUGGCACCACACUAGGGACUAUCAGGUAAUAAAAGCUUUGACUCCCU", "RBNS enrichment (R)": 0.337}
{"Oligonucleotide": "CCCUGGCCUUGCUAUGAGGGAAAGAUUGAAUAAGCAGCGCACAAGGCAUUCUGGUGCACUAACUUGUGCACACACCAGCUCCAGCCUUUGCAGAAUGACAGCUCUUUGUU", "RBNS enrichment (R)": 2.11}
{"Oligonucleotide": "ACAAUGAAAGACCCUGGCCCUGUCUCUCAAAACUUAACUUUCUCUGUAUGAUUUUUUUUUUAAAAAAAUAUUCCAUUUAUUUUACUUUGUGGUUACUUGAUUUUGAGGAA", "RBNS enrichment (R)": 0.779}
{"note": "Excerpt of the above (set 2):"}
{"Modification": "2'F-ANA at 1 3 5 6 8 10 11 14", "mean fluorescence intensity": "50.2 a.u."}
{"Modification": "2'F-ANA at 1 2 3 6 9 10 12 15", "mean fluorescence intensity": "85.2 a.u."}
{"Modification": "2'F-ANA at 1 4 8 9 13 15", "mean fluorescence intensity": "86 a.u."}
{"Modification": "2'F-ANA at 1 5 6 7 9 10 12 15", "mean fluorescence intensity": "47.6 a.u."}
{"Modification": "2'F-ANA at 3 4 5 6 7 10 11 13 14 15", "mean fluorescence intensity": "124 a.u."}
{"Modification": "2'F-ANA at 1 2 5 6 9 10 11 15", "mean fluorescence intensity": "45.5 a.u."}
{"Modification": "2'F-ANA at 1 2 3 4 5 7 8 11 12 15", "mean fluorescence intensity": "96.8 a.u."}
